# Published values from different studies.
# Each line is one published result; not all experiments were run side by side. Several values in a cell are separate wells, animals, samples, runs or records. Numbers after ± are the reported error.
# USP16 ZnF-UBD domain: Ubiquitin carboxyl-terminal hydrolase 16, ZnF-UBD domain (USP16, Homo sapiens, UniProt Q9Y5T5)
# Sequence of UniProt Q9Y5T5 (whole entry, looked up): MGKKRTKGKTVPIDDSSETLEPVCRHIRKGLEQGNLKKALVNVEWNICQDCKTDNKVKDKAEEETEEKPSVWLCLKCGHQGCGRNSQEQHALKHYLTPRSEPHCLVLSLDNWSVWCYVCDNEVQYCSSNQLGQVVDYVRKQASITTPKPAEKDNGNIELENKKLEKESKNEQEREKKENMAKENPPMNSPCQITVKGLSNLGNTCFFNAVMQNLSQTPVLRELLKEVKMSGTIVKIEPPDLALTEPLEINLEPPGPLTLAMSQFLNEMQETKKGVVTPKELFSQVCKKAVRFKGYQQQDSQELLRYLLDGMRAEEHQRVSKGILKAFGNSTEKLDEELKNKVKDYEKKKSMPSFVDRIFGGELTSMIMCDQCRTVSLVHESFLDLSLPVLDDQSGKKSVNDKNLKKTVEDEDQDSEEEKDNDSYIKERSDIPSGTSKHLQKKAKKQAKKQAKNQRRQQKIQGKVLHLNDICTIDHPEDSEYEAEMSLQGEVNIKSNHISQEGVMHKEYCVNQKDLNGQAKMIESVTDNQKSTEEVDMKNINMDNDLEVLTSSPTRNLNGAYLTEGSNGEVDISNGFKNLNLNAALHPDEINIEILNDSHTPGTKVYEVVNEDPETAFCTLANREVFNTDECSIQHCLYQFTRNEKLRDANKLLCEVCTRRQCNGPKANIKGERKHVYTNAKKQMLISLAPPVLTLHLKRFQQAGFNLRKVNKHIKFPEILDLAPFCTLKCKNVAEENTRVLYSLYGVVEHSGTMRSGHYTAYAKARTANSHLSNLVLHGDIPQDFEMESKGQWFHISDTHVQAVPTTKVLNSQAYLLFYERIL
# DNMT1: DNA (cytosine-5)-methyltransferase 1 (DNMT1, Homo sapiens, UniProt P26358)
# Sequence of UniProt P26358 (whole entry, looked up): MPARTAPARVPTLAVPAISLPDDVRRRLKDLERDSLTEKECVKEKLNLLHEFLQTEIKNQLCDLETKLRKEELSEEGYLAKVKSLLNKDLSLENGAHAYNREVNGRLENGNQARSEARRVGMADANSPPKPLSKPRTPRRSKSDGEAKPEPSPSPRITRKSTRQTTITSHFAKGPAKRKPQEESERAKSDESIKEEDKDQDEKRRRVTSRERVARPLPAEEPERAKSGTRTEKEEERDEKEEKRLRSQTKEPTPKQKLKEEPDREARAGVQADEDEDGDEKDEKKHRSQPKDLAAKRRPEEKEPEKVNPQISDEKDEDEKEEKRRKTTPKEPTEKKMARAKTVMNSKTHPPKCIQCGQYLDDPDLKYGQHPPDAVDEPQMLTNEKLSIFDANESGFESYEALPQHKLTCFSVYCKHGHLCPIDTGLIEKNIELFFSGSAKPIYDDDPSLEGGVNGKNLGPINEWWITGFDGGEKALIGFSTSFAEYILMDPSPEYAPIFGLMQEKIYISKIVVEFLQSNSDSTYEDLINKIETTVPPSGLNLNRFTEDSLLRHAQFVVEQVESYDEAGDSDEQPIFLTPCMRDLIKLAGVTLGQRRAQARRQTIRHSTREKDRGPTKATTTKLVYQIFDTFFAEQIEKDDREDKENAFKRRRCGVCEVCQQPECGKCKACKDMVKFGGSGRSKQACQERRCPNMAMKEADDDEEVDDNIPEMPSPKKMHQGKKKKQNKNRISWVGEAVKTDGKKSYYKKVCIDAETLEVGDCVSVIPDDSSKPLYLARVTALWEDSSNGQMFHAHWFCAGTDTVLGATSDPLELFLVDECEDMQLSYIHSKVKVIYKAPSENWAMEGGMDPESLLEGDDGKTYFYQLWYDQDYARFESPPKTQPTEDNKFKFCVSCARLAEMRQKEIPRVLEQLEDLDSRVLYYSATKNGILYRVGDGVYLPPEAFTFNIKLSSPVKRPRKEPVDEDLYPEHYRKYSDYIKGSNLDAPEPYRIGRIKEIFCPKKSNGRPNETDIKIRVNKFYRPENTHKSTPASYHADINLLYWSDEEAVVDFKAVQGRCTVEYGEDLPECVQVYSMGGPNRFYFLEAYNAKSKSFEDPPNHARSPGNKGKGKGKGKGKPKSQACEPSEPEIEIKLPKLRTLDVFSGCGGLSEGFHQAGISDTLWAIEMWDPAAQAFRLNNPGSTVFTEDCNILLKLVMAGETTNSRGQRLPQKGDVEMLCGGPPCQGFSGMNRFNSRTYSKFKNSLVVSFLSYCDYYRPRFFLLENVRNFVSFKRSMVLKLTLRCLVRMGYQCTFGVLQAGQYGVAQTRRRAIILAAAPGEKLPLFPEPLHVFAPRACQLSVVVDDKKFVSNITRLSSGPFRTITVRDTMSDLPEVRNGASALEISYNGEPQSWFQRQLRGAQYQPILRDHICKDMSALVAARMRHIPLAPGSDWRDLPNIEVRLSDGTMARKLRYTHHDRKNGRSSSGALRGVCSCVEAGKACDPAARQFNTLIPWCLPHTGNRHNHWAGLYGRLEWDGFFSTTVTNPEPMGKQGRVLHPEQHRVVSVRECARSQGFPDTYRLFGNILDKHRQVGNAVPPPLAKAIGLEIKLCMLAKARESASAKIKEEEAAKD
# Kir3.1/Kir3.4: Kir3.1/Kir3.4 (Homo sapiens, UniProt P48544+P48549)
# Sequence of UniProt P48549 (whole entry, looked up): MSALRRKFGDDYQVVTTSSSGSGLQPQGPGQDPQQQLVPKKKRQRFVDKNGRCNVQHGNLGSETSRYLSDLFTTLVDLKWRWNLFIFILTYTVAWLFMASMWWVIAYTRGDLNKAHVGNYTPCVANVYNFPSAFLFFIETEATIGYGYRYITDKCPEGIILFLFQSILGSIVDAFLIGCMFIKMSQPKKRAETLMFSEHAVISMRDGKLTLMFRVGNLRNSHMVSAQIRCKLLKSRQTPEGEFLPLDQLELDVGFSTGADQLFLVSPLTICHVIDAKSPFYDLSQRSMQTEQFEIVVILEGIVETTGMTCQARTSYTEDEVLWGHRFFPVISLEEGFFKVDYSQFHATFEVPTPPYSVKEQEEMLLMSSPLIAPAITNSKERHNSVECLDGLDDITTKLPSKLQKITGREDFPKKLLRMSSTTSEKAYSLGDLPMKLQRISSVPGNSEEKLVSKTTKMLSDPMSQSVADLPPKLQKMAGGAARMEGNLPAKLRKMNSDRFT
# Sequence of UniProt P48544 (whole entry, looked up): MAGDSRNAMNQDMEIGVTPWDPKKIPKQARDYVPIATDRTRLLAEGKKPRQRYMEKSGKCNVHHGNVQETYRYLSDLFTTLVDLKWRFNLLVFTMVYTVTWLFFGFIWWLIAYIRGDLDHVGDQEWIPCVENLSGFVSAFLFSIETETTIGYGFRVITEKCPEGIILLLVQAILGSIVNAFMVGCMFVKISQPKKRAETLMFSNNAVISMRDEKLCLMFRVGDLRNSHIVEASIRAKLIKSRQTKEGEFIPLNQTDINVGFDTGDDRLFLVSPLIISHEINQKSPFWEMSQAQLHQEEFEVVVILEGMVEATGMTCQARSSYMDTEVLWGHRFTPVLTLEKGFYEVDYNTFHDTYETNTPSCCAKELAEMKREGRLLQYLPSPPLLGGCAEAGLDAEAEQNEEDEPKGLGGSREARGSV
# Sequence of UniProt Q6NT16 (whole entry, unmodified, looked up): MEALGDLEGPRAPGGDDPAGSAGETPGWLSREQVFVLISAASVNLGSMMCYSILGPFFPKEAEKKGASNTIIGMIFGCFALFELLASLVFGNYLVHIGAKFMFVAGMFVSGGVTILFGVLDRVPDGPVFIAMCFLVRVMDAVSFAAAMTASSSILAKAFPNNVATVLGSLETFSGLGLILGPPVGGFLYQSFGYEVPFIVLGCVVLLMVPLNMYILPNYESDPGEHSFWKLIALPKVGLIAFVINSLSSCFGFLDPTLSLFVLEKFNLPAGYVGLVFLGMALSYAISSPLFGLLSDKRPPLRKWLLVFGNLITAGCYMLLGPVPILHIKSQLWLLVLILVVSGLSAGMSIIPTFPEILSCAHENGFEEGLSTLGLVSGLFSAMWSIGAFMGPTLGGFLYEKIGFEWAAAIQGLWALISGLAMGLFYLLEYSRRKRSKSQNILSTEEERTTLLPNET
# Sequence of UniProt Q99705 (whole entry, looked up): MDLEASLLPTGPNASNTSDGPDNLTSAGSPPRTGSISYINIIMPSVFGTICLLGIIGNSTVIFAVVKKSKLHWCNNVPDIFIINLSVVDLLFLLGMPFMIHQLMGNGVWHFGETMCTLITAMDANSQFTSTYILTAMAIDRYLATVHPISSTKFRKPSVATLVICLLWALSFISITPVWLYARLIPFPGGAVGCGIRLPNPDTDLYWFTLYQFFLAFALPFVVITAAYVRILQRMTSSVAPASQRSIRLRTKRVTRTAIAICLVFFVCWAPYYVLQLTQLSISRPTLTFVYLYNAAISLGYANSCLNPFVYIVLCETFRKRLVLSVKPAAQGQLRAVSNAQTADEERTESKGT
# Sequence of UniProt Q9R1P1 (whole entry, looked up): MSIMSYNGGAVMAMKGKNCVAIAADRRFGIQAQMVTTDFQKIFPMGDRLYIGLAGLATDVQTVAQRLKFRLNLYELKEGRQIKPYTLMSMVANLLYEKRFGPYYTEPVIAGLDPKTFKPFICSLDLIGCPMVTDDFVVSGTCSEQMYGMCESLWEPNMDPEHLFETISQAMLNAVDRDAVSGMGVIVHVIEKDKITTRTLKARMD
# Sequence of UniProt O75469 (whole entry, looked up): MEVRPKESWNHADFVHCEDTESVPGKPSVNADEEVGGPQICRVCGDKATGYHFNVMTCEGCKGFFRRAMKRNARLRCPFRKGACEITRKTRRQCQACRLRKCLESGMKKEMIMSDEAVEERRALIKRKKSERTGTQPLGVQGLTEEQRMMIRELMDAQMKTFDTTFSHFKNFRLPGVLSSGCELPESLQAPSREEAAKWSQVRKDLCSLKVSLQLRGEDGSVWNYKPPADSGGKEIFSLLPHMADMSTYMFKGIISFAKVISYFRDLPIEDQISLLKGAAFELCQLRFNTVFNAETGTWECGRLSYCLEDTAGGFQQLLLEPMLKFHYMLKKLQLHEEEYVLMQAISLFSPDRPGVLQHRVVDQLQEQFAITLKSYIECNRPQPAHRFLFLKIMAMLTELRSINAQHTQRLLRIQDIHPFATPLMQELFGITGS
SMILES,target or system,test,test system,setting,scale,endpoint,value
N#Cc1ccc(N2CCNCC2COc2ccc3c(c2)OCO3)cc1 (stereo not drawn),"P2X purinoceptor 4 (P2RX4, Homo sapiens, UniProt Q99571)","calcium flux, inhibitor, Ca2+ flux",human cells,,,IC50,6.17 ± 2.03 µM
O=C(O)Cn1cc2ccccc2n1,USP16 ZnF-UBD domain,,,,,Kd,> 1000 µM
CCCNC(=O)C(Sc1nc(N2CCC(N)CC2)c(C#N)c(CC)c1C#N)c1ccccc1 (stereo not drawn),DNMT1,"degrader, Western blot",HCT-116,"24 h, range 0.01 to 1 µM",,DC50,> 1 µM
Cc1cc(NC(=O)CCC(=O)O)nn1C,USP16 ZnF-UBD domain,,,,,Kd,193 µM
CC(C)C[C@H](NC(=O)[C@H](CCc1ccccc1)NC(=O)CN1CCOCC1)C(=O)N[C@@H](Cc1ccccc1)C(=O)N[C@@H](CC(C)C)C(=O)[C@@]1(C)CO1,"Psmb7/Psmb3, β2 subunit (Mus musculus, UniProt P70195+Q9R1P1)",proteasome subunit activity,Ba/F3 BCR-ABL1 H396P,1 h pulse,,IC50,0.114 ± 0.00636 µM
O=C(O)CCn1c(=O)oc2ccccc21,USP16 ZnF-UBD domain,,,,,Kd,981 µM
Cn1cncc1C[C@H](NC(=O)CCN)C(=O)O,,"binding, MIDAS equilibrium dialysis LC-MS",A2AR-BRIL thermostabilized,concentration not given,reference: no-protein control,log2 fold change,-0.161
O=C(O)CCn1cnc2ccccc21,USP16 ZnF-UBD domain,,,,,Kd,> 1000 µM
CCc1c(C#N)c(NCC(N)=O)nc(SC(C(N)=O)c2ccccc2)c1C#N (stereo not drawn),DNMT1,"degrader, Western blot",HCT-116,"24 h, range 0.01 to 1 µM",,DC50,> 1 µM
O=c1n(CCCN2CCN(c3cccc(Cl)c3)CC2)nc2ccccn12,"HCRTR2 (Homo sapiens, UniProt O43614)",,,,,Ki,> 10 µM
O=C(O)CCn1nnc(-c2ccccc2)n1,USP16 ZnF-UBD domain,,,,,Kd,482 µM
CCc1c(C#N)c(SC(C(N)=O)c2ccccc2)nc(N(C)CC(=O)NC)c1C#N (stereo not drawn),DNMT1,"degrader, Western blot",HCT-116,"24 h, range 0.01 to 1 µM",,DC50,0.04 µM and < 0.05 µM
CCn1c(-c2nc3cc(C(=O)N4CCC[C@@H](N)C4)cc(OC)c3n2C)cc2cccnc21,"PADI4 (Homo sapiens, UniProt Q9UM07)","binding, fluorescence polarisation",,"with: tracer displacement, 2 mM Ca2+",,IC50,0.807 µM
NCCCNCCCCNCCCN,"MFS-type transporter SLC18B1 (SLC18B1, Homo sapiens, UniProt Q6NT16, D255A)",binder,,,,Kd,402 µM
OC[C@H]1OC(O)[C@H](O)[C@@H](O)[C@@H]1O (stereo partly drawn),"ATP-dependent RNA helicase DDX50 (DDX50, Homo sapiens, UniProt Q9BQ39, K187G)",microscale thermophoresis,,purified recombinant DDX protein,,Kd,939 ± 419 µM
CCc1cc(NC(=O)COc2cccc(Cl)c2Cl)n(C2CCC(F)(F)CC2)n1,Kir3.1/Kir3.4,"activator, thallium flux",HEK293,,,EC50,0.339 µM
Cc1ccc(C(C)C)cc1O,"uncharacterized protein (Solanum tuberosum, UniProt M0ZZL3)",substrate inhibition,,with: 100 µM UDP-glucose,,Ki,1280 ± 746 µM
O=C(COc1cc(Cl)ccc1Cl)Nc1cc(C2CCC2)nn1C1CCOCC1,Kir3.1/Kir3.4,"activator, thallium flux",HEK293,,,EC50,0.95 µM
O=C(O)CCc1nc2ncccn2n1,USP16 ZnF-UBD domain,,,,,Kd,> 1000 µM
CCc1c(C#N)c(SC(C(N)=O)c2ccccc2)nc(N2CCN(C(=O)c3ccco3)CC2)c1C#N (stereo not drawn),DNMT1,"degrader, Western blot",HCT-116,"24 h, range 0.01 to 1 µM",,DC50,< 0.05 µM
CCc1cc(/C(C)=N/OCc2ccc(C3CCCCC3)c(C(F)(F)F)c2)ccc1CN1CC(C(=O)O)C1,"SLCO1B3 (Homo sapiens, UniProt Q9NPD5)",inhibitor,HEK293 transfected with SLCO1B3,"3 min, with: estradiol-17β-glucuronide 1 µM",,Ki,0.732 µM
O=C(COc1ccc(C(F)(F)F)cc1C(F)(F)F)Nc1cc(C2CCC2)nn1C1CCC(F)(F)CC1,Kir3.1/Kir3.4,"activator, thallium flux",HEK293,,,EC50,8.8 µM
N#Cc1c2n(c3c(=O)n(CC(=O)O)cnc13)CCCC2,USP16 ZnF-UBD domain,,,,,Kd,403 µM
CC/C=C\C/C=C\C/C=C\C/C=C\C/C=C\C/C=C\CCC(=O)O,"Cytochrome P450 2J2 (CYP2J2, Homo sapiens, UniProt P51589, L2A)","enzyme activity, competitive inhibitor",,"nanodiscs with CPR, with: arachidonic acid",,Ki,16.5 ± 2.23 µM
Nc1ncnc2c1ncn2[C@@H]1O[C@H](COP(=O)(O)OP(=O)(O)O)[C@@H](O)[C@H]1O,"CKMT1A (Homo sapiens, UniProt P12532, E265D)",microscale thermophoresis,,"pH 7.0, E227D mutant, no substrate",,Kd,25 ± 9 µM
CCC[C@H](CC)Oc1ccc(C(C)(C)C)cc1NC(=O)c1nnn(-c2cc(OC)c(OCCCCCCOCCOCC(=O)N[C@H](C(=O)N3C[C@H](O)C[C@H]3C(=O)NCc3ccc(-c4scnc4C)cc3)C(C)(C)C)cc2OC)c1C,"NR1I2 (Homo sapiens, UniProt O75469)","degrader, western blot",SNU-C4 3xFLAG knock-in cells,24 h,,DC50,~0.05 µM
C=C(OP(=O)(O)O)C(=O)O,,"binding, MIDAS equilibrium dialysis LC-MS",A2AR-BRIL thermostabilized,concentration not given,reference: no-protein control,log2 fold change,-0.184
COc1cc2c(cc1OC)[C@H]1C[C@@H](O)[C@H](CC(C)C)CN1CC2,"MFS-type transporter SLC18B1 (SLC18B1, Homo sapiens, UniProt Q6NT16, M48A)",binder,,radiolabeled protein variants,,Kd,44.5 µM
CCc1cc(NC(=O)COc2cccc(Cl)c2Cl)n(CC(F)(F)F)n1,Kir3.1/Kir3.4,"activator, thallium flux",HEK293,,,EC50,1.07 µM
O=C(O)CCc1ccc2c(c1)OCO2,USP16 ZnF-UBD domain,,,,,Kd,> 1000 µM
CCc1c(C#N)c(SC(C(N)=O)c2ccccc2)nc(N2CCC(NC(=O)C34CC5CC(CC(C5)C3)C4)CC2)c1C#N (stereo not drawn),DNMT1,"degrader, Western blot",HCT-116,"24 h, range 0.01 to 1 µM",,DC50,< 0.05 µM
CCCCN1CCC(COC(=O)c2ccc(N)c(OCF)c2)CC1,GABA-A receptor (human recombinant),binding,,,,Ki,> 10 µM
CCCC[C@H](NC(=O)[C@H](C)c1c(C)[nH]c2ccc(O)cc12)c1ncc(-c2cc3ccccc3nc2OC)[nH]1,"MCHR1 (Homo sapiens, UniProt Q99705)",binding,,,,Ki,6.32 µM

# Some of these lines once more:
SMILES,target or system,test,test system,setting,scale,endpoint,value
CCCNC(=O)C(Sc1nc(N2CCC(N)CC2)c(C#N)c(CC)c1C#N)c1ccccc1 (stereo not drawn),DNMT1,"degrader, Western blot",HCT-116,"24 h, range 0.01 to 1 µM",,DC50,> 1 µM
O=C(O)CCc1nc2ncccn2n1,USP16 ZnF-UBD domain,,,,,Kd,> 1000 µM
O=c1n(CCCN2CCN(c3cccc(Cl)c3)CC2)nc2ccccn12,"HCRTR2 (Homo sapiens, UniProt O43614)",,,,,Ki,> 10 µM
CCc1c(C#N)c(SC(C(N)=O)c2ccccc2)nc(N2CCC(NC(=O)C34CC5CC(CC(C5)C3)C4)CC2)c1C#N (stereo not drawn),DNMT1,"degrader, Western blot",HCT-116,"24 h, range 0.01 to 1 µM",,DC50,< 0.05 µM
